Assay results pooled from the literature.
Each numbered part is a random draw from the data of one study; scales do not carry over between parts. Changes are numbered by the printed parent chain.
Chain of UniProt P62344 (whole entry, looked up): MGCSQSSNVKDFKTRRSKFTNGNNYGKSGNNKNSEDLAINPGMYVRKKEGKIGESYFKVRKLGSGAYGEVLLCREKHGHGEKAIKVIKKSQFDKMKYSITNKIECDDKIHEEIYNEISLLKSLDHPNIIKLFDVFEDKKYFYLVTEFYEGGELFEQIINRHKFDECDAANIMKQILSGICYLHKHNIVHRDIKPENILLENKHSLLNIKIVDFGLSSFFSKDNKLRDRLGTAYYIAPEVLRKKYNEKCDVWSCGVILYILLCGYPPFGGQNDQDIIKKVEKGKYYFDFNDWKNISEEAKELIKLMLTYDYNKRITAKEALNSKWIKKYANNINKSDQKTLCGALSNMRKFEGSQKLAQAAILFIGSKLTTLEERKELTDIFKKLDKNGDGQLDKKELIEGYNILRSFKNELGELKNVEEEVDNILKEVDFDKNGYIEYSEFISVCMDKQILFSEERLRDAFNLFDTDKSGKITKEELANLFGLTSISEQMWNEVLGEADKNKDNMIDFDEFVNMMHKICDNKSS
Chain of UniProt P49761 (whole entry, looked up): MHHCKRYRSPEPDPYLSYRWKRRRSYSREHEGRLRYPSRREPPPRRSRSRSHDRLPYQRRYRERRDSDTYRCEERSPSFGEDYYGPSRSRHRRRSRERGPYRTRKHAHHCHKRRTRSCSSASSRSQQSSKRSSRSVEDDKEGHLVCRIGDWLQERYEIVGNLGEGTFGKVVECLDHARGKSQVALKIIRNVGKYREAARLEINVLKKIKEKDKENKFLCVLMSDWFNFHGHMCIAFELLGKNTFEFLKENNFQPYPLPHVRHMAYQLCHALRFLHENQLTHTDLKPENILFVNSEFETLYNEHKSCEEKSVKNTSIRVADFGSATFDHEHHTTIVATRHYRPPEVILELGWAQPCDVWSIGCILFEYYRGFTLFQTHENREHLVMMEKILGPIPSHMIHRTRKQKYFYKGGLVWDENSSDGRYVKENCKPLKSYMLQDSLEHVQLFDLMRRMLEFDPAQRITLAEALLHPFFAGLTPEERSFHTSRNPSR
Chain of UniProt Q13464 (whole entry, looked up): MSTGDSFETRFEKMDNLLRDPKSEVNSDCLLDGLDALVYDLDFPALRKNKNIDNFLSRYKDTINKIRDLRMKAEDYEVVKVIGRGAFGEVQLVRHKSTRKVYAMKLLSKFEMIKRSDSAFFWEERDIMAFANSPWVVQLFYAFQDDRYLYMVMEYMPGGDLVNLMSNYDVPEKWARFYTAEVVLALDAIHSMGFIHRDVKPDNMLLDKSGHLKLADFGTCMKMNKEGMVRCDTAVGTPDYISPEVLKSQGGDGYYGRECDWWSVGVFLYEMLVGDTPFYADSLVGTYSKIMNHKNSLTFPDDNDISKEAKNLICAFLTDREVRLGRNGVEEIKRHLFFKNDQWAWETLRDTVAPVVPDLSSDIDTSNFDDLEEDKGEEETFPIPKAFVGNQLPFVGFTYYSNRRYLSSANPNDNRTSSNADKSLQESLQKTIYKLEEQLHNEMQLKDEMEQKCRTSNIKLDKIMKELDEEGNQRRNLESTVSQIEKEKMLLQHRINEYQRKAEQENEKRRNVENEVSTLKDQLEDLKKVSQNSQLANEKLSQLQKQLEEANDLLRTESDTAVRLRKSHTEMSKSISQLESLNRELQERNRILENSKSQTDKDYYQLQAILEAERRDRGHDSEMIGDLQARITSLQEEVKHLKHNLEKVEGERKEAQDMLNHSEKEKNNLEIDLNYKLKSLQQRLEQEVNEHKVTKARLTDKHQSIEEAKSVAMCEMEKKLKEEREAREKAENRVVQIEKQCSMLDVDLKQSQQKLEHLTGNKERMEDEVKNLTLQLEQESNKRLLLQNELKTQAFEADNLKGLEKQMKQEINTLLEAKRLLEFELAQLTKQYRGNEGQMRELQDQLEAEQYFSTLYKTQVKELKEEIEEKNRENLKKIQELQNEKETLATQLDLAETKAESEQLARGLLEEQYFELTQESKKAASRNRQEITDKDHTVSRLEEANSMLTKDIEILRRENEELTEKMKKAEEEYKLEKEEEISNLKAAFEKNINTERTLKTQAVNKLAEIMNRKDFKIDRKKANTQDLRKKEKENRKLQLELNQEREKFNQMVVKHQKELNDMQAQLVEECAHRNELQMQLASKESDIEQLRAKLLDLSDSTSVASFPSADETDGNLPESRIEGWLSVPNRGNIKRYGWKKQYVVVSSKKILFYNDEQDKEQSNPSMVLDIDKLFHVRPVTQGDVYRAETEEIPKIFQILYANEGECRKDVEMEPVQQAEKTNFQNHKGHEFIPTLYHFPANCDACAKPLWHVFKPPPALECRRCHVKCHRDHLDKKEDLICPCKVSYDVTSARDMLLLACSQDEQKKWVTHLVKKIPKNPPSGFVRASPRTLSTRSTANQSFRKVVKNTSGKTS
Chain of UniProt Q16832 (whole entry, looked up): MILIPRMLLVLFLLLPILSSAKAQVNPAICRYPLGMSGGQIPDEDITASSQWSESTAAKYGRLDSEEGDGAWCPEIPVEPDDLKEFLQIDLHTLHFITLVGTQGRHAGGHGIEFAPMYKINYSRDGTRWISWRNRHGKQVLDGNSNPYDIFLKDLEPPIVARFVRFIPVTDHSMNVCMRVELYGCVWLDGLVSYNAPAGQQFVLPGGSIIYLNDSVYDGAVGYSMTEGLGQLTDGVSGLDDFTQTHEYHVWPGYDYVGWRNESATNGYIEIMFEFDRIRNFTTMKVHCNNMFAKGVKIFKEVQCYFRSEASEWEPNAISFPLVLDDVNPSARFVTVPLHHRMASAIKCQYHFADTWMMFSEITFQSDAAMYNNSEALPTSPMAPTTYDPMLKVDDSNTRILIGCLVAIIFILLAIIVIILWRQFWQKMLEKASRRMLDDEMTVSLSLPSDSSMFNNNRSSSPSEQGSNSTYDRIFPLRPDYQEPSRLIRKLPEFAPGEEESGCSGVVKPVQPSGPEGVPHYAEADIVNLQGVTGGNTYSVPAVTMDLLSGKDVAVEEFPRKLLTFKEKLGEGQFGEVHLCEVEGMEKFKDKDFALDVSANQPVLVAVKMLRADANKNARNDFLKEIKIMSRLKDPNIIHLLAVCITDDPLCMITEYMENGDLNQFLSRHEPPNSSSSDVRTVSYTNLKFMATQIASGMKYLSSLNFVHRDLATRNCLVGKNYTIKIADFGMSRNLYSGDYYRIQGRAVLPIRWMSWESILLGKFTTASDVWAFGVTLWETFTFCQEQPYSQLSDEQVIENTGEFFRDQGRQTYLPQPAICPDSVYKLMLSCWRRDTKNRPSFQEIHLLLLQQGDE
Chain of UniProt P50750 (whole entry, looked up): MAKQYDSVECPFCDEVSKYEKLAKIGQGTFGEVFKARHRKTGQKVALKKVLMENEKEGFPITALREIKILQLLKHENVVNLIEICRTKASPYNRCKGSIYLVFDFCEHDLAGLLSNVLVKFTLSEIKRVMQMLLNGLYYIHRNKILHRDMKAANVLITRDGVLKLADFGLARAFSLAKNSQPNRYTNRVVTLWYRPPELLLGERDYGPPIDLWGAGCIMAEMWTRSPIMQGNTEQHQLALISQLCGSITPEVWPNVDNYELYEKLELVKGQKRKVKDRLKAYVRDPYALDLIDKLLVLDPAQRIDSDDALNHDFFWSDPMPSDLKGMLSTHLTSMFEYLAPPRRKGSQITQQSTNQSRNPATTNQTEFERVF
Chain of UniProt Q13237 (whole entry, looked up): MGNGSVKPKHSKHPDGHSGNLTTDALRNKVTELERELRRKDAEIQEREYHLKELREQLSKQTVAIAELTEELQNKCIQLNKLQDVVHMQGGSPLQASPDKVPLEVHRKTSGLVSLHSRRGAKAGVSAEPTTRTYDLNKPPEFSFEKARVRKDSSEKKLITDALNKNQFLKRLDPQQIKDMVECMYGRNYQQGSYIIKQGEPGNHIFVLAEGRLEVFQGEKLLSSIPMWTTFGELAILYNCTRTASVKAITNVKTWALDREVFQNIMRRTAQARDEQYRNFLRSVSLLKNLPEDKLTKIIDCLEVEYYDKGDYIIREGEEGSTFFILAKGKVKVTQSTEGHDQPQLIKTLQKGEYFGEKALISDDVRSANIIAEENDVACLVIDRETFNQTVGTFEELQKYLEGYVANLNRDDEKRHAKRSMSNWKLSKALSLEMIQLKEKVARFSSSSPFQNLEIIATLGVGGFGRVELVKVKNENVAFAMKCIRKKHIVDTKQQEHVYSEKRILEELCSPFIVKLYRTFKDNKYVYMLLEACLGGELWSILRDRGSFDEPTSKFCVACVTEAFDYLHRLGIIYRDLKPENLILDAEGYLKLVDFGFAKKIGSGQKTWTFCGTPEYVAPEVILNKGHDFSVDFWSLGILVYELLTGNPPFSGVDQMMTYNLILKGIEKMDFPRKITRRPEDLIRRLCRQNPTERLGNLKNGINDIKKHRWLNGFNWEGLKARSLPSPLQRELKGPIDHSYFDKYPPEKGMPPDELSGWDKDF
Chain of UniProt P31751 (whole entry, looked up): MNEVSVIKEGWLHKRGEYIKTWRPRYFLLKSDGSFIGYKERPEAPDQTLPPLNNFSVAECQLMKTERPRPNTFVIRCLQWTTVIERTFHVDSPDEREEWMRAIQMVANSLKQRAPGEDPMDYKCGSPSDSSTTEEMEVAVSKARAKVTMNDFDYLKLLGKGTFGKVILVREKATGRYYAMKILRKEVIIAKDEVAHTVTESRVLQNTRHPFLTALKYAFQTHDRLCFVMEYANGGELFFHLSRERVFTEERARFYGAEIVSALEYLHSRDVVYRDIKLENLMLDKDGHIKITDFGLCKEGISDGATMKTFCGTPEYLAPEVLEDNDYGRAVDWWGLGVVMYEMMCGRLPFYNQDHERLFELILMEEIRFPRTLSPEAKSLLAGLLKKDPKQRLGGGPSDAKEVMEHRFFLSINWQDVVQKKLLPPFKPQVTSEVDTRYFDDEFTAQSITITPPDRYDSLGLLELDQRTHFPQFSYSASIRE

Block 1 — effect on: enzyme activity; mode: inhibitor; tested at: 0.5 µM; reference: control
SMILES: O=C1NC(=O)c2c1c1c3ccccc3n3c1c1c2c2ccccc2n1[C@H]1CC[C@@H]3O1
For RPS6KA4 (Homo sapiens, UniProt O75676): remaining activity read 12.4%.
The remaining activity was 80.1% (DDR2 (Homo sapiens, UniProt Q16832)).
Cyclin-dependent kinase 9, with cyclin K (CDK9, Homo sapiens, UniProt P50750) — remaining activity: 15.8%.
For KDR (Homo sapiens, UniProt P35968): remaining activity read 4.55%.
It gave 6.01% for remaining activity (PRKG2 (Homo sapiens, UniProt Q13237)).
For CLK3 (Homo sapiens, UniProt P49761): remaining activity read 97%.
It gave 89.6% for remaining activity (DCLK2 (Homo sapiens, UniProt Q8N568)).
The remaining activity was 19.1% (Myosin-IIIb (MYO3B, Homo sapiens, UniProt Q8WXR4)).
It gave 108% for remaining activity (MAPK11 (Homo sapiens, UniProt Q15759)).
PNCK (Homo sapiens, UniProt Q6P2M8) — remaining activity: 50.5%.
CAMK4 (Homo sapiens, UniProt Q16566) — remaining activity: 98.7%.
The remaining activity was 48.5% (AKT2 (Homo sapiens, UniProt P31751)).
ROCK1 (Homo sapiens, UniProt Q13464) — remaining activity: 88.7%.
It gave 77% for remaining activity (GRK4 (Homo sapiens, UniProt P32298)).

Block 2 — organism: Sarcocystis neurona; effect on: parasite growth; tested at: 10 µM; time: 96 h; notes: first screen; reference: untreated
`COc1cc2c(cc1OC)[C@@]13CCN4CC5=CCO[C@H]6CC(=O)N2[C@H]1[C@H]6[C@H]5C[C@H]43` — result for “log2 fold change”: -0.65.
`CC[C@@H](C(N)=O)N1CCCC1=O`: “log2 fold change” 0.0746.
Under “log2 fold change”, `CC(O)(CS(=O)(=O)c1ccc(F)cc1)C(=O)Nc1ccc(C#N)c(C(F)(F)F)c1` (stereo not shown) is recorded as 0.0645.
`CCc1nc(N)nc(N)c1-c1ccc(Cl)cc1`: “log2 fold change” -3.81.

Block 3 — target: CCNF, cyclin fold, Cln2 fusion (human); method: yeast growth competition, sequencing; matrix: yeast; notes: strong parent motif; reference: not given; direction: higher = stronger binding
Starting sequence: viral docking peptide; TSVRRALFTGGSD; partner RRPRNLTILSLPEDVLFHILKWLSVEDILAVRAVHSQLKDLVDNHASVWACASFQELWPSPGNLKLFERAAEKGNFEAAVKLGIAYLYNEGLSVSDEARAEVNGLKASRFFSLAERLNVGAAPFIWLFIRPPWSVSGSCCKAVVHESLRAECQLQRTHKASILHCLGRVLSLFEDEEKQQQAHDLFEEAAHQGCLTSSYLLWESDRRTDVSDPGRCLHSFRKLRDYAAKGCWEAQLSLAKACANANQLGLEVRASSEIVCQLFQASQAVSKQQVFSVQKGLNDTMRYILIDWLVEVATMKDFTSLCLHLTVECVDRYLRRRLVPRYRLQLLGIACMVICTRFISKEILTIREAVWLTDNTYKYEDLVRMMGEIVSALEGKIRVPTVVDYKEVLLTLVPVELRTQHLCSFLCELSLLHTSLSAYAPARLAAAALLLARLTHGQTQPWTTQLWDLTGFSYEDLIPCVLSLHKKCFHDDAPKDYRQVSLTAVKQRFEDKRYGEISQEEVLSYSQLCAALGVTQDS
`F8G` — result for “normalised enrichment score”: 0.742.
`A6N`: “normalised enrichment score” 7.18.
Under “normalised enrichment score”, `R4H` is recorded as 4.61.
`R5I` — result for “normalised enrichment score”: 1.24.
Under “normalised enrichment score”, `G11L` is recorded as 8.34.
For `S12M`, “normalised enrichment score” read 8.24.
`A6G` — result for “normalised enrichment score”: 6.49.
`V3L` — result for “normalised enrichment score”: 4.94.

Other studies, line by line
For `CN[C@@H]1C[C@H]2O[C@@](C)([C@@H]1OC)n1c3ccccc3c3c4c(c5c6ccccc6n2c5c31)C(=O)NC4`, the viability was 3.1% (normal organoid sample H; CellTiter-Glo; human, normal-adjacent epithelium; 1 µM; reference: DMSO).
Under “steady-state volume of distribution”, `O=C1CCC(N2Cc3c(ccc4c3OCC43CCN(Cc4ccccc4)CC3)C2=O)C(=O)N1` (stereo not shown) is recorded as 3.28 L/kg (Sprague Dawley rats, male, plasma; intravenous, 1.0 mg/kg).
The EC50 of `O=C(O)c1ccc2[nH]cc(CCCCN3CC=C(c4ccccc4)CC3)c2c1` is reported as no less than 100 µM (ADRB1 (Homo sapiens, UniProt P08588); agonist).
The remaining binding of `NS(=O)(=O)c1cc(NC(=O)Cc2ccccc2)ccc1Oc1cccc(Cl)c1` is reported as 91% (CDPK1 (Plasmodium falciparum, UniProt P62344); cell-free assay, competition with immobilised ligand; 1 µM).
`CONC(=O)[C@H]1[C@@H](O)[C@@]2(O)c3c(OC)cc(OC)cc3O[C@@]2(c2ccc(Br)cc2)[C@@H]1c1ccccc1`: “fluorescence polarization change” 30 mP (EIF4A1 (Homo sapiens, UniProt P60842); RNA clamping, fluorescence polarization; concentration not given, with: FAM-labelled poly r(AG)8 RNA).
